Measured values from different studies.
Protocols differ between the studies behind these lines. ± marks the error that the study gave.

With `O=C(Cc1cccc(OC(F)(F)F)c1)Nc1ccc(CCCCc2nnc(NC(=O)Cc3ccccn3)s2)nn1` the Cmin was 232 ng/mL (human patients, plasma; oral, 800 mg three times daily fasted, cycle 1 day 15 steady state).
For `liraglutide`, “plasma protein binding” read 99.5% (equilibrium dialysis; human plasma 5% diluted; 10 nM, 4 to 5 h, pH 7.4, 37 °C, inner-outer ratio 100:1).
The plasma concentration of `CS(=O)(=O)n1cc2c(n1)CN([C@H]1CO[C@H](c3cc(F)ccc3F)[C@@H](N)C1)C2` is reported as 7.55 nM (healthy Japanese men, fasted, plasma; oral, 5 mg single dose, 168 h).
For `CN[C@H](CC(C)C)C(=O)N[C@H]1C(=O)N[C@@H](CC(N)=O)C(=O)N[C@H]2C(=O)N[C@H]3C(=O)N[C@H](C(=O)N[C@H](C(=O)O)c4cc(O)cc(O)c4-c4cc3ccc4O)[C@H](O)c3ccc(c(Cl)c3)Oc3cc2cc(c3O[C@@H]2O[C@H](CO)[C@@H](O)[C@H](O)[C@H]2O[C@H]2C[C@](C)(N)[C@H](O)[C@H](C)O2)Oc2ccc(cc2Cl)[C@H]1O`, “time above MIC” read 100% (pig, Danish Landrace, plasma; intravenous, 1000 mg over 100 min, 450 min dosing interval, together with: 1.0 µg/mL MIC; baseline: dosing interval).
`COC(=O)C[C@](O)(CCCC(C)(C)O)C(=O)O[C@@H]1C(OC)=C[C@]23CCCN2CCc2cc4c(cc2[C@H]13)OCO4`: tissue concentration “not detected” (CD1 mouse, brain; oral, 1 mg/kg, 24 h, below quantification limit 1.00 ng/mL).
`CCOc1ccc(Cc2cc([C@]34OC[C@](CO)(O3)[C@@H](O)[C@H](O)[C@H]4O)ccc2Cl)cc1` has a fu of 0.0346 (equilibrium dialysis; human, type 2 diabetes, mild renal impairment, plasma; oral, 15 mg, 6 h).
`NCCCC[C@@H]1NC(=O)[C@@H](Cc2c[nH]c3ccccc23)NC(=O)[C@H](c2ccccc2)NC(=O)[C@@H]2C[C@@H](OC(=O)NCCN)CN2C(=O)[C@H](Cc2ccccc2)NC(=O)[C@H](Cc2ccc(OCc3ccccc3)cc2)NC1=O` gave a blood glucose of 116 mg/dL (healthy human volunteers; subcutaneous, 300 µg, 2 h, post-prandial).
`TFFYGGSRGRRNNFRTEEY-OH (C-acid)` has a brain uptake of 0.053 ± 0.019% (in situ brain perfusion; peptide, male C57BL/6J mouse, right brain hemisphere; 5 min, 1.15 mL/min perfusion, 1 min wash; baseline: input).
Under “intact parent radiotracer”, `CC(C)C[C@H](NC(=O)[C@H](CCCNC(=N)N)NC(=O)[C@H](CC(N)=O)NC(=O)[C@H](CC(=O)O)NC(=O)[C@H](CCCNC(=N)N)NC(=O)CNC(=O)CNC(=O)CNC(=S)Nc1ccc(C[C@H]2CN(CC(=O)O)CCN(CC(=O)O)CCN2CC(=O)O)cc1)C(=O)N[C@@H](CC(N)=O)C(=O)N[C@H](C(=O)NCC(=O)NCC(=O)N[C@H](C(=O)N[C@@H](Cc1ccc(O)cc1)C(=O)N[C@@H](Cc1ccccc1)C(=O)N[C@@H](CC(C)C)C(=O)N[C@H](C(=O)N[C@H](C(=O)N[C@@H](CCCNC(=N)N)C(=O)N[C@@H](CCC(N)=O)C(=O)O)[C@@H](C)O)[C@@H](C)O)[C@@H](C)O)C(C)C` [fluorine-18 labelled] is recorded as 93.6 ± 1.38% (radio-HPLC; mouse (HepG2 tumour-bearing), blood; intravenous, 5.55 MBq, 1 h).
`COc1cc2c(cc1OC)CN(CCc1ccc(NC(=O)c3cc(OC)c(OC)cc3NC(=O)c3cnc4ccccc4c3)cc1)CC2` has a plasma concentration of 266 ng/mL (Wistar rats, plasma; intravenous, 3 mg/kg, 3 h).
`O=C(c1nc2n(n1)[C@H](c1ccccc1)C[C@@H]2F)C1CC1` gave a concentration of 924 ng/mL (human, plasma; oral, 225 mg, 24 h, single dose, fasted, healthy volunteers).
`Cc1cc(Nc2ncc(Cl)c(Nc3ccccc3S(=O)(=O)C(C)C)n2)c(OC(C)C)cc1C1CCNCC1` gave a Css,min of 10 nM (refers to: unbound drug; patients, plasma; oral, 750 or 450 mg/day, 23.7 h, geometric mean).
For `O=C1N=C(N2CCOCC2)CN1c1ccc(Cl)cc1`, the Vd/F was 0.646 L/kg (female beagle dog, plasma; oral, 30 mg/kg, fasted).
For `O=c1[nH]cnc2c([C@@H]3O[C@H](CO)[C@@H](O)[C@H]3O)snc12`, the pKa was 7.83 (fluorescence emission vs pH).
With `[2H]C([2H])([2H])Oc1cc2c(cc1OC([2H])([2H])[2H])C1CC(=O)C(CC(C)C)CN1CC2` (centres unmarked) the dose-normalized AUC(0-t) was 14.5 ng·h/mL (refers to: deuterated α-HTBZ; healthy human volunteers, plasma; oral, 6 mg single dose, standard meal).
Under “AUC(0-t) arithmetic mean”, `CC(C)c1nc(CN(C)C(=O)N[C@H](C(=O)N[C@@H](Cc2ccccc2)C[C@H](O)[C@H](Cc2ccccc2)NC(=O)OCc2cncs2)C(C)C)cs1` is recorded as 78100 ng·h/mL (healthy men, plasma; 600 mg single dose, together with: amenamevir 1200 mg).
`CC[C@H](C)[C@@H]1NC(=O)[C@H](Cc2ccc(O)cc2)NC(=O)[C@@H](N)CSSC[C@@H](C(=O)N2CCC[C@H]2C(=O)N[C@@H](CC(C)C)C(=O)NCC(N)=O)NC(=O)[C@H](CC(N)=O)NC(=O)[C@H](CCC(N)=O)NC1=O` gave an AUC(0-t) of 18000 ± 987 pg·30 min/sample (ELISA; C57BL/6J male mice, wild type, plasma; intraperitoneal, 12 µg total, total area from zero).
Under “median serum concentration”, `C[C@]12CC[C@@H]3c4ccc(O)cc4CC[C@H]3[C@@H]1C[C@@H](O)[C@@H]2O` is recorded as 0 ng/mL (GC-MS; breast cancer women on NSAI, serum; vaginal, 0.03 mg daily, 0.5 h, day 28).
`CC1(C)Oc2cc3oc(=O)ccc3cc2C[C@@H]1O` — result for “plasma T.Bili level”: 0.23 ± 0.05 mg/dL (male CD-1 mouse, plasma; oral gavage, 80 mg/kg daily, 4 weeks).
`CCN1CC(=O)NC(CC(C)C)C(=O)N(C)C(C)C(=O)NC(CC(C)C)C(=O)N2CCCC2C(=O)N(CC2CCOCC2)CC(=O)NC(CC(C)C)C(=O)N(C)C(C)C(=O)NC(C)C(=O)N2CCCC2C1=O` (centres unmarked) has an oral bioavailability of 4% (mouse; oral, dose not given, together with: GF120918 pretreatment).
For `Cc1c(O)cc2c(c1C)O[C@](C)(CCC[C@H](C)CCC[C@H](C)CCCC(C)C)CC2`, the serum concentration was 1300 ± 200 nM (HPLC; female Nu/Nu BALB/c mouse, serum; oral diet, 500 mg/kg diet, at euthanasia).
`CCCCC1(CCCC)CN(c2ccccc2)c2cc(SC)c(OCC(=O)N[C@@H](C(=O)NCC(=O)O)c3ccccc3)cc2S(=O)(=O)C1` gave an AUC(0-t) of 0.751 ng·h/mL (human, plasma; oral, 5 mg once daily, day 14, geometric mean).
`des-acyl ghrelin (human)` has a brain/serum ratio of 8.53 µL/g (mouse, wild type, thalamus; intravenous, 10 min).
`C=CC[C@@H]1/C=C(\C)C[C@H](C)C[C@H](OC)[C@H]2O[C@@](O)(C(=O)C(=O)N3CCCC[C@H]3C(=O)O[C@H](/C(C)=C/[C@@H]3CC[C@@H](O)[C@H](OC)C3)[C@H](C)[C@@H](O)CC1=O)[C@H](C)C[C@@H]2OC` — result for “dose-adjusted blood concentration”: “no effect” (mass spectrometry; kidney transplant recipients, high vs low BMI, whole blood; dose not given, 0 to 4 h).
`Cc1c2oc3c(C)ccc(C(=O)N[C@@H]4C(=O)N[C@H](C(C)C)C(=O)N5CCC[C@H]5C(=O)N(C)CC(=O)N(C)[C@@H](C(C)C)C(=O)O[C@@H]4C)c3nc-2c(C(=O)N[C@@H]2C(=O)N[C@H](C(C)C)C(=O)N3CCC[C@H]3C(=O)N(C)CC(=O)N(C)[C@@H](C(C)C)C(=O)O[C@@H]2C)c(N)c1=O` gave a half-life of 2.21 h (mouse, FVB wild-type, liver; intravenous, 0.5 mg/kg).
The renal clearance of `CC[C@@H]1CN(C(=O)NCC(F)(F)F)C[C@@H]1c1cnc2cnc3[nH]ccc3n12` is reported as 52.5 mL/min (human, mild renal impairment, urine and plasma; oral, 15 mg single dose, extended release, fasted, geometric mean).
`CC(C)(O/N=C(\C(=O)N[C@H]1CN2CC(C(=O)NCCN3C(=O)c4cc(O)c(O)cc4C3=O)=C(C(=O)O)N2C1=O)c1nc(N)sc1Cl)C(=O)O` has a plasma concentration of 20200 ng/mL (CD-1 mouse, plasma; subcutaneous, 50 mg/kg, 0.5 h).
For `CNCc1ccc(-c2cc(-c3nc(-c4ccc(S(=O)(=O)C(C)C)cc4)cnc3N)on2)cc1`, the CL was 38.5 mL/min/kg (mouse BALB/c female, plasma; intravenous, 2.0 mg/kg, from AUC(0-inf)).
The Tmax of `CCCC[C@H](NC(C)=O)C(=O)N[C@H]1CCC(=O)NC[C@@H](C(=O)N[C@@H](Cc2c[nH]c3ccccc23)C(N)=O)NC(=O)[C@H](CCCNC(=N)N)NC(=O)[C@@H](Cc2ccccc2)NC(=O)[C@H](Cc2c[nH]cn2)NC1=O` is reported as 1 h (beagle dog, female, plasma; subcutaneous, 8.0 mg/kg daily, day 1).
`Cc1nc2cccc(OCC(C)(C)C(=O)NC(C)C)c2c(N)c1C(=O)O` gave a Cmax of 90 ± 23.9 ng/mL (Sprague-Dawley rat, male, plasma; oral gavage, 30 mg/kg, day 1).
`CC(C)OC(=O)[C@H](CCC(=O)C=[N+]=[N-])NC(=O)O[C@H](C)OC(=O)C(C)(C)C` gave a remaining compound of 86 ± 5% (swine plasma; 10 µM, 60 min, 37 °C).
`CC(C)=CCC[C@](C)(O[C@@H]1O[C@H](CO)[C@@H](O)[C@H](O)[C@H]1O)[C@H]1CC[C@]2(C)[C@@H]1[C@H](O)C[C@@H]1[C@@]3(C)CC[C@H](O)C(C)(C)[C@@H]3[C@@H](O[C@@H]3O[C@H](CO)[C@@H](O)[C@H](O)[C@H]3O)C[C@]12C` gave a CL/F of 280 ± 91.7 mL/min/kg (Sprague Dawley rat, male, plasma; oral, 25 mg/kg, in red ginseng extract).
